Assay results gathered from unrelated publications.
Numbered parts are unrelated; each lists some results of a single study. Substitutions count along the parent as printed.

Series 1
Target: Interferon regulatory factor 3, full length, phosphomimetic (IRF3, Homo sapiens, UniProt Q14653, residues 1-427, S386D/S396D/S398D/S402D/T404D/S405D)
Chain of UniProt Q14653 (whole entry, unmodified, looked up): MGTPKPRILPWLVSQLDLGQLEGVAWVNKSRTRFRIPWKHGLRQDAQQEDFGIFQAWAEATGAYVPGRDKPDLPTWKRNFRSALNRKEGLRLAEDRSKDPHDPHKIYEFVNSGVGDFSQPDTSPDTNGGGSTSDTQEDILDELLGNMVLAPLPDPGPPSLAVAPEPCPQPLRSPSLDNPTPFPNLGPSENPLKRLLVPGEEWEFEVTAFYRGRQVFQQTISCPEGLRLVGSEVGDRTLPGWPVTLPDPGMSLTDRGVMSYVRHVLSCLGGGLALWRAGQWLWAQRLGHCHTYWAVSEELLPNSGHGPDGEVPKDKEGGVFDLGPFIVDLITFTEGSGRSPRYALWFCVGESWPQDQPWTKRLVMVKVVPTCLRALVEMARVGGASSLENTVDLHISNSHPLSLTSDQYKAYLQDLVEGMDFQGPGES
Method: protein-binding microarray
Molecule type: double-stranded DNA, one strand shown
Matrix: in vitro
Tested at: 2540 nM top
Notes: 60-bp whole probe
Together with: salmon DNA 0.4 mg/ml
Baseline: random background probes
Direction: higher = stronger binding
All sequences stand within: GCCTAGCAC … GTCTTGATTCGCTTGACGCTGCTG
`GACGTACTGGGGTTTCGGGACGTGCTA` — result for “fitted relative affinity”: 0.73 z-score.
`TACGGTATCCTTCTCCTGACGTGCTAG` — result for “fitted relative affinity”: 6.77 z-score.
For `GACGGTATCGGACTGGCGACGTGCTAG`, “fitted relative affinity” read 1.52 z-score.
`GACGGTTTCGGGTTTCGCGACGTGCTA`: “fitted relative affinity” 5.84 z-score.
Under “fitted relative affinity”, `CGGCTACCGCGGCTCCTACAGTGCTAG` is recorded as -0.667 z-score.
`ATTTTTTTATCAATCATTTTGTGCTAG` — result for “fitted relative affinity”: 1.21 z-score.
For `CCCGTTCACCCACGACCCTTGTGCTAG`, “fitted relative affinity” read 1.33 z-score.
`TCAATGATCCAGTTTTACACTGTGCTA`: “fitted relative affinity” 0.443 z-score.
Under “fitted relative affinity”, `TCAATTCGTCATTTCACACTGTGCTAG` is recorded as 1.12 z-score.
Under “fitted relative affinity”, `TTAGGACTGGGCTTTCGGTTAGTGCTA` is recorded as 0.103 z-score.
Under “fitted relative affinity”, `GACGGTATCGTTCTCCTGACGTGCTAG` is recorded as 4.32 z-score.
`TTAGCTATCGGTTTCGGTTAGTGCTAG`: “fitted relative affinity” 6.05 z-score.
`TTAGATATCAGTCTCGATAAGTGCTAG` — result for “fitted relative affinity”: 1.35 z-score.
`GACGGTTCCCTATTCCTGACGTGCTAG`: “fitted relative affinity” 3.54 z-score.
`TTACGTATCGACTTTCGGTTAGTGCTA`: “fitted relative affinity” 2.32 z-score.
For `TTAGGTATCGACTATCGGGTAGTGCTA`, “fitted relative affinity” read 0.205 z-score.
For `TTCTGAAGCAGAGCCCTGTTGTGCTAG`, “fitted relative affinity” read -0.198 z-score.

Series 2
Target: Sal-like protein 4, full length isoform A (SALL4, Homo sapiens, UniProt Q9UJQ4, residues 1-1053)
Chain of UniProt Q9UJQ4 (whole entry, looked up): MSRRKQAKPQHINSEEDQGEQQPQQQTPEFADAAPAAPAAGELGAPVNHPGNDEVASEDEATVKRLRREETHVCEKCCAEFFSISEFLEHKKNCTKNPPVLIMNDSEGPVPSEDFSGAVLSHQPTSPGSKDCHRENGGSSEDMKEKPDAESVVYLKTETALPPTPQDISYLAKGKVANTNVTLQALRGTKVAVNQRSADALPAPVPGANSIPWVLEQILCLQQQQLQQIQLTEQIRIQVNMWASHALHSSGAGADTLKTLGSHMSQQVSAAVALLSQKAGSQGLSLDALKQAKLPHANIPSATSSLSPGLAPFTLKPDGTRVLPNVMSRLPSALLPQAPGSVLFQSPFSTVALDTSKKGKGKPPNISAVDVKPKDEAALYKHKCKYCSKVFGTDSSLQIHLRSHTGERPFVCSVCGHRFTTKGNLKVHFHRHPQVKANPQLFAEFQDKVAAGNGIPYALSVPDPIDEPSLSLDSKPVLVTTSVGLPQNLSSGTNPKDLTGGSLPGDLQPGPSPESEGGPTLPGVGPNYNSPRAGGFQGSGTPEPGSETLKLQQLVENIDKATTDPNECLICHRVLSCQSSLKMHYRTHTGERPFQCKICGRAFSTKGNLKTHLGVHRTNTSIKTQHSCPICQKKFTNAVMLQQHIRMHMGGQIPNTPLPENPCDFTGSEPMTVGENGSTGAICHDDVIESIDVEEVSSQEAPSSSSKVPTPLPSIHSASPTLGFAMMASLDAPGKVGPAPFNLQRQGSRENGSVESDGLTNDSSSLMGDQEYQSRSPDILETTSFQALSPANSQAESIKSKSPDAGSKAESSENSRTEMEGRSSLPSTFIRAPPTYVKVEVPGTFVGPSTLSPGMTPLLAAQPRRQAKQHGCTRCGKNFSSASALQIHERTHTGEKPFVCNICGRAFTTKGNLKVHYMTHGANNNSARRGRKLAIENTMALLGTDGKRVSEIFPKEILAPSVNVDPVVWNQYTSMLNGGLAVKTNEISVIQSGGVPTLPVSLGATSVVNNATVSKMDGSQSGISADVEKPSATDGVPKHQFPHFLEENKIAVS
Method: universal PBM
Molecule type: double-stranded DNA, one strand shown
Matrix: in vitro
Tested at: 600 nM
Notes: 8-mer, flanks averaged, mean of replicates
Direction: higher = stronger binding
For `ATTTGTGG`, the E-score was 0.187.
`AGAGCCGC` gave an E-score of -0.362.
`AAGAACAT` gave an E-score of 0.193.
`CAGACGAG` has an E-score of -0.0256.
`CTGCTGTC` gave an E-score of -0.17.
The E-score of `TGATTTAA` is reported as 0.278.
With `AAAAACCC` the E-score was -0.0616.
For `GGGGACAC`, the E-score was -0.333.
For `AGTGATTG`, the E-score was 0.0738.
The E-score of `ATGAACAT` is reported as 0.242.
For `CCGTTAAG`, the E-score was -0.146.
With `AAGTCCGG` the E-score was -0.199.
`ATTCTAAA` has an E-score of 0.273.
The E-score of `CCTAGAGC` is reported as -0.205.
`AAATCGGG` has an E-score of 0.139.
The E-score of `AGGGACAG` is reported as -0.157.

Series 3
Target: RNA binding protein fox-1 homolog 2, RRM domain, GST-SBP tag (RBFOX2, Homo sapiens, UniProt O43251-10, residues 100-194)
Method: RNA Bind-n-Seq
Molecule type: RNA
Matrix: in vitro
Tested at: 365 nM
Notes: natural RNA segment, single round, ends assumed
Baseline: no-protein control
Direction: higher = stronger binding
Residues (chain): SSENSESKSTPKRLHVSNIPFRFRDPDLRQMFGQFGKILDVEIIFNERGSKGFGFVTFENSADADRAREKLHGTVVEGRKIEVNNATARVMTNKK
`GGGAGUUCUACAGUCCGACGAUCCCUAACCAGAUCUGAGCUGUGCUCACAAUAAUAAUAAUGAAAUCAGAUUCUUUGAUGCUGGACUCAGGAGGGAAAUCAUUAGCCAACUGUUGACUUACUUAUAGCUAGAUUGGAAUUCUCGGGUGCCAA`: “RBNS enrichment (R)” 0.699.
`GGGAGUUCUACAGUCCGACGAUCAAUGAAAACAUUAAUGUGUUAAUACCCUGUAUGGAUAAUGCUUGACAUUUAGUGGUUUCCAAAAUAUAUUAGUAUAUUGUUGAACAUACAUUAUGCCUUAGAAAUGCACAUGGAAUUCUCGGGUGCCAA`: “RBNS enrichment (R)” 0.546.
`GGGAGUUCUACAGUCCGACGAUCUGGUGGACUCCUCCCGCUGGAGGCGGGGACCCUAACAACCUUCAAGACCAGUGAUGGGCCGGCUCCGAGGCUCCGGGCGGGAAUGGGACCUGCGCUCCAGGGUGGUCUCGUGGAAUUCUCGGGUGCCAA` — result for “RBNS enrichment (R)”: 0.377.
For `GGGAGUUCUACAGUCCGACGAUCUGAGGCCAGGCUGCUCCAAGGGCCGCAUGAGCCCUAAUCUGCCACAGAGCAACCCAGGUUAAACACAGCCCAUGCACAAAGCCACAGGCUAAAUCCUGUGGAAUUGUUUUUGGAAUUCUCGGGUGCCAA`, “RBNS enrichment (R)” read 0.527.
`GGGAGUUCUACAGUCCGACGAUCACCCUCUUGAUUGGAGCUUUUGUGAUGCAGCUACCAUGAUUCAAAAAAAUUAAAAAUUAAAAAAAAAAAAUCUGCCACUUAUCCAAGUCCACUAGAGGCCACUGUCUUCAUGGAAUUCUCGGGUGCCAA`: “RBNS enrichment (R)” 3.84.
For `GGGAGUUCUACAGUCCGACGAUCUUCUGGGCCUGGCUGUGAAGCCCUGUUUUUGGUAUUCAGAAUGGAUCUUUAAGGCUCAGAUGGGCUCAAAUUGAAACCUUGUGUUUUAUAAAAUGGAUGUUUAGUAAAGGUGGAAUUCUCGGGUGCCAA`, “RBNS enrichment (R)” read 0.665.
`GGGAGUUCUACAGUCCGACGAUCUAUUCUCACGGGCAGUAGCUGUGGUGAGGUGGGUUUUCUUCCCAUCACUGGAGCACCAGGCACGAACCCACCUGCUGAGAGACCCAAGGAGGAAAAACAGACAAAAACAGUGGAAUUCUCGGGUGCCAA`: “RBNS enrichment (R)” 0.46.
Under “RBNS enrichment (R)”, `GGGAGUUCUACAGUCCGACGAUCAAGGAGGGGAGCCUUUGGGGGGCCACCCGGGGCCUGGACCUAUGCAGGGAGGCCACGUCCCACCCCACCUCUUGUUUCUGGGUCCCUGCUCCCCUUUGGGGGUGUGUGUGUGGAAUUCUCGGGUGCCAA` is recorded as 0.756.
`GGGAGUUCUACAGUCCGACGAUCUUAUUCCACACAGCAGUUUGACUUUGUAAAAGUUUAGCAAAAUAACUGAUUGUUUUGGAUAACUCAACAUGUUUUUCUUAAAUGCUGUUUUAGUAUUUUCUACCUCUUAAUGGAAUUCUCGGGUGCCAA`: “RBNS enrichment (R)” 0.338.
For `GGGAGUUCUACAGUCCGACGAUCAAGUCUCUGAGAGGAGGCUGAAGAGUGUUGGGGCUCCUGGGACAUACAUGUAGAGUUCCUAGCAAAGUGGGCGCCUUUCUCGUCCACAGCAUUUAAAGAGAGGAAGGAGAUGGAAUUCUCGGGUGCCAA`, “RBNS enrichment (R)” read 1.3.
For `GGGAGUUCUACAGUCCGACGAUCGGGGAGGGGGUUGUGGUAAGGGCCCUCUGGAAAUCAAGCAGAGAAUGCCUUUGCAGUGGUCUCCCGGGCAUUGGGCAGGGCCUAGCCUUUUGCAGCCCCCAGAGGACCUUUGGAAUUCUCGGGUGCCAA`, “RBNS enrichment (R)” read 0.495.
`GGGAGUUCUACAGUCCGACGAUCACCCCACCCAAAAGCCCCCUUUGUUACUUAGGCAAUUCCCCUUCCCUGACUCCCGAGGGCUAGGGCUAGAGCAGACCCGGGUAAGUAAAGGCAGACCCAGGGCUCCUCUAUGGAAUUCUCGGGUGCCAA`: “RBNS enrichment (R)” 0.488.

Series 4
Target: Cln2 (Saccharomyces cerevisiae)
Effect on: peptide binding
Method: competitive growth sequencing
Molecule type: peptide
Organism: Saccharomyces cerevisiae
Strain: unfused Cln2 strain
Notes: peptide tiling library
Direction: direction not given
With `ALTMEALEDPSPELME` the enrichment score was 0.0523.
The enrichment score of `VEEEFFALRKRTPSAG` is reported as 0.0651.
`IPDRSTKPVVFSPT` has an enrichment score of 1.26.
`DSGFCLDSPGPLDSKE` gave an enrichment score of 1.28.
`VKTKKRLNFDDK` has an enrichment score of -0.927.
`HRRRLLFACSPPPASQ` gave an enrichment score of -1.19.
For `LFVPQRKLEVSTEDVH`, the enrichment score was -0.317.
`RRRRLLFWDKETQI` has an enrichment score of -1.76.

Series 5
Target: ABI1, truncated, D143A, DHFR fusion (Arabidopsis thaliana, UniProt P49597)
Method: DHFR PCA, dose-response
Matrix: yeast
Notes: Hill fit, mean, not affinity
Together with: (+)-ABA, dose series
Direction: lower = more sensitive
Starting sequence: PYL1, truncated, DHFR fusion (Arabidopsis thaliana, UniProt Q8VZS8); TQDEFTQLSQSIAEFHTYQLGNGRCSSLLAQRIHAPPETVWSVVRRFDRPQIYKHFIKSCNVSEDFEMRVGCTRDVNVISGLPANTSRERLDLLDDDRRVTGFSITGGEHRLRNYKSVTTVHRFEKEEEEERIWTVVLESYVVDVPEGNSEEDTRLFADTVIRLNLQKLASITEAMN
The ABA EC50 of `A158T` is reported as 0.562 µM.
For `C60G`, the ABA EC50 was 934 µM.
The ABA EC50 of `L29S` is reported as 39.9 µM.
`G81E` has an ABA EC50 of 222 µM.
The ABA EC50 of `T6C` is reported as 2.88 µM.
`F103L` has an ABA EC50 of 401 µM.
For `R163D`, the ABA EC50 was 129 µM.
`Q10T` has an ABA EC50 of 1.33 µM.
The ABA EC50 of `R32L` is reported as 2.93 µM.
The ABA EC50 of `Y53H` is reported as 11.4 µM.
The ABA EC50 of `E14M` is reported as 5.04 µM.
With `R88D` the ABA EC50 was 77.3 µM.
`V100S` has an ABA EC50 of 69.2 µM.
With `R88L` the ABA EC50 was 3.47 µM.
The ABA EC50 of `E174I` is reported as 33.3 µM.
`V136T` has an ABA EC50 of 11.5 µM.
With `V70D` the ABA EC50 was 64.9 µM.
The ABA EC50 of `S104I` is reported as 706 µM.
`E64D` gave an ABA EC50 of 2.52 µM.

Excerpt of the above (series 5):
With `R88D` the ABA EC50 was 77.3 µM.
The ABA EC50 of `L29S` is reported as 39.9 µM.
With `R88L` the ABA EC50 was 3.47 µM.
The ABA EC50 of `S104I` is reported as 706 µM.
